Results from different studies.
Lines come from different studies, so protocols differ. Numbers after ± are the reported error.

Structure (SMILES)	assay	test system	conditions	scale	quantity	value
CCc1cc(O)ccc1-c1ccc2c(-c3nc4c([nH]3)CN(C(C)C)[C@H](C(=O)N3CC(N(C)C)C3)C4)n[nH]c2c1		human, plasma	inhalation, 1 mg, single dose, geometric mean		t1/2	1100 min
CN[C@@](C)(C[18F])C(=O)O		SCID mouse DU-145 xenograft, muscle	15 min, post injection		tissue uptake	0.8 ± 0.2 %ID/g
O[C@H]1CCCN[C@@H]1CCCn1cnc2c(Cl)c(Cl)ccc21		healthy human volunteers, plasma	oral, 50 mg, day 1, multiple ascending dose		AUC(0-tau)	215 ng·h/mL
COc1ccc(-c2cc(=O)c3c(OC)c(OC)c(OC)c(OC)c3o2)cc1OC		C57BL/6 mouse, male, plasma	oral, 1% w/w in diet, 6 weeks, orange peel extract diet	relative to: content in orange peel	tissue to peel content ratio	0.086%
CC(C)c1nc(N(C)S(C)(=O)=O)nc(-c2ccc(F)cc2)c1/C=C/[C@@H](O)C[C@@H](O)CC(=O)O		healthy volunteers, plasma	oral, dose not given, given alone		AUC	23 ng·h/mL
CCCCCCCCCCCC(=O)NCCCC[C@H](NC(=O)[C@@H](NC(=O)[C@@H](NC(=O)[C@H](C)NC(=O)[C@H](C)NC(=O)[C@H](CCCCN)NC(=O)[C@H](CCCCN)NC(=O)[C@H](CS)NC(=O)[C@H](CCCCN)NC(=O)[C@@H]1CCCN1C(=O)[C@H](CC(C)C)NC(=O)[C@@H](NC(=O)[C@H](Cc1c[nH]c2ccccc12)NC(=O)[C@H](CC(C)C)NC(=O)[C@@H](N)CCCCN)C(C)C)C(C)C)C(C)C)C(N)=O	three-compartment model	Sprague Dawley rat, plasma	intravenous, 2.5 mg		slow intercompartmental clearance	5 mL/h
CCCCCCCCCC[N+](C)(C)C	in vitro-in vivo extrapolation	human			hepatic clearance	0.67 mL/h/g liver
COc1ccc(C[C@@H]2NC(=O)[C@H]([C@@H](C)O)NC(=O)[C@@H]3[C@@H]4CCN3C(=O)[C@@H]3Cc5cn(c6ccc(F)cc56)CCCCCCN(Cc5ccc(cc5)CCNC(=O)[C@]5(C)CCCN5C2=O)C(=O)CCC(=O)N[C@@H](C)C(=O)N[C@H](CNC(=O)CCCCC[N+](C)(C)C)C(=O)N[C@@H](Cc2cccc(c2)CNC(=O)CO4)C(=O)N3)cc1		fasted healthy humans, plasma	oral, 300 mg single dose, with 1800 mg Labrasol, geometric mean		AUC(0-t)	2 µM·h
CC(=O)N[C@H](CCCCNC(=O)C(C)F)C(=O)N[C@@H](CS)C(=O)N[C@@H](CS)C(=O)N[C@@H](CCC(=O)O)C(=O)N[C@@H](Cc1c[nH]cn1)C(=O)N[C@H](Cc1ccccc1)C(=O)N[C@@H](CCCNC(=N)N)C(=O)N[C@@H](Cc1c[nH]c2ccccc12)C(=O)N[C@@H](CS)C(=O)N[C@@H](CCCNC(=N)N)C(=O)N1CCC[C@H]1C(=O)N[C@H](C(N)=O)C(C)C (stereo partly drawn) [fluorine-18 labelled]		C57BL/6 mice, male, B16-F10 tumour, pancreas	intravenous, 2 h		tissue uptake	0.18 ± 0.03 %ID/g
O=C(N[C@@H](Cn1ccnc1)c1ccc(-c2ccc(F)cc2)cc1F)c1ccc(-c2nnc(-c3ccccc3)o2)cc1		mouse, plasma	oral, 25 mg/kg, DGAT formulation		Cmax	11000 ng/mL
CSCC[C@H](N)C(=O)N[C@@H](CC(N)=O)C(=O)N[C@@H](Cc1ccccc1)C(=O)N[C@@H](CCCNC(=N)N)C(=O)N1CCC[C@H]1C(=O)NCC(=O)N[C@H](C(=O)N[C@@H](CC(C)C)C(=O)N[C@@H](CO)C(=O)N[C@@H](CO)C(=O)N[C@@H](CCCNC(=N)N)C(=O)N[C@@H](CCC(N)=O)C(=O)N[C@@H](CC(C)C)C(=O)NCC(=O)N[C@@H](CC(C)C)C(=O)N1CCC[C@H]1C(=O)NCC(=O)N1CCC[C@H]1C(=O)N1CCC[C@H]1C(=O)N[C@@H](CC(=O)O)C(=O)N[C@H](C(=O)N1CCC[C@H]1C(=O)N[C@@H](CC(=O)O)C(=O)N[C@@H](Cc1c[nH]cn1)C(=O)N[C@@H](C)C(=O)N[C@@H](C)C(=O)N[C@@H](Cc1ccc(O)cc1)C(=O)N[C@@H](Cc1c[nH]cn1)C(=O)N1CCC[C@H]1C(=O)N[C@@H](Cc1ccccc1)C(=O)O)C(C)C)C(C)C	LC-MS/MS	human serum	concentration not given, 4 h, room temperature, tube with gel separator	relative to: initial concentration	change in serum concentration	-10.9 ± 12%
[123I]c1cncc(OC[C@@H]2CCN2)c1	SPECT	human, brain cortex	intravenous bolus plus infusion, 7.7 mCi	relative to: plasma	tissue/plasma ratio	37.4

A few entries again:
Structure (SMILES)	assay	test system	conditions	scale	quantity	value
[123I]c1cncc(OC[C@@H]2CCN2)c1	SPECT	human, brain cortex	intravenous bolus plus infusion, 7.7 mCi	relative to: plasma	tissue/plasma ratio	37.4
